Results gathered from unrelated publications.
Protocols differ between the studies behind these lines.

SMILES | test | test system | conditions | measurement | value
CN1C(=O)[C@@H](NC(=O)c2nnc(Cc3ccccc3)[nH]2)COc2cccnc21 |  | human, fasted | oral, 400 mg single dose | subjects with headache | 0%
CN(C)C(=N)N=C(N)N | item: nervous system disorders | healthy human | oral, dose not given | subjects with adverse event | 20.8%
Cc1nc(Nc2ncc(C(=O)Nc3c(C)cccc3Cl)s2)cc(N2CCN(CCO)CC2)n1 |  | human | oral, 100 mg | subjects with serious AE | 0%
Cc1cc(-c2nccc3c2ccn3CC(=O)Nc2ccc(-c3cnccn3)cn2)ccn1 |  | human | 5 mg once daily, multiple ascending dose | subjects with Folliculitis adverse event | 12.5%
CN(Cc1cnc2nc(N)nc(N)c2n1)c1ccc(C(=O)N[C@@H](CCC(=O)O)C(=O)O)cc1 | item: Diarrhea | healthy human | oral, dose not given | subjects with adverse event | 0%
C[C@H]1CN(C(=O)CC#N)[C@]12CCN(c1ncnc3[nH]ccc13)C2 |  | healthy human | oral, 6 mg single | subjects with serious TEAEs | 0%
CC(=O)N(C)[C@H]1CCN(C(=O)c2cnc3c(c2)C[C@](C)(c2ccc(F)cc2)N3)C1 |  | healthy male human | oral, dose not given, all doses pooled | subjects with severe AEs | 4.2%
CC(C)(C(=O)N1CCOc2c(C#N)cncc2C1)C(F)F |  | human, both sexes | oral, 40 mg single dose | subjects with thrombophlebitis TEAE | 0%
O=C(COc1ccc(Cl)cc1)NC12CC(c3nnc([C@H]4C[C@@H](OC(F)(F)F)C4)o3)(C1)C2 |  | humans | concentration not given | subjects with mild TEAE | 57.1%
COC(=O)N[C@H](C(=O)N1CCC[C@H]1c1ncc(-c2cc(F)c3c(c2)O[C@@H](c2cnc(C4CC4)s2)n2c-3cc3cc(-c4cnc([C@@H]5CCCN5C(=O)[C@@H](NC(=O)OC)C(C)C)[nH]4)ccc32)[nH]1)C(C)C |  | healthy adult human | oral, 180 mg, 6 days, compound alone | subjects with procedural dizziness | 0%
CC(=O)CC(c1ccccc1)c1c(O)c2ccccc2oc1=O (stereo not shown) |  | human | concentration not given, trial 1 | subjects nervous system disorders | 6%
C=C(C)[C@@H]1CC[C@]2(NCCN3CCS(=O)(=O)CC3)CC[C@]3(C)[C@H](CC[C@@H]4[C@@]5(C)CC=C(C6=CC[C@@](CF)(C(=O)O)CC6)C(C)(C)[C@@H]5CC[C@]43C)[C@@H]12 |  | healthy human volunteers | oral, 500 mg, 7 days | subjects with nervous system disorders | 0%
CO[C@H]1/C=C/O[C@@]2(C)Oc3c(C)c(O)c4c(O)c(c(/C=N/N5CCN(C)CC5)c(O)c4c3C2=O)NC(=O)/C(C)=C\C=C\[C@H](C)[C@H](O)[C@@H](C)[C@@H](O)[C@@H](C)[C@H](OC(C)=O)[C@@H]1C |  | healthy humans | oral, dose not given | subjects with ≥1 adverse events | 79.2%
C=CC(=O)NC1CCN(c2ncc3ncnc(Nc4ccc(Oc5ccc6c(c5)ncn6C)c(C)c4)c3n2)CC1 |  | healthy male human | oral, 60 mg, 2 weeks, maximum CTCAE grade 1 | subjects with adverse events | 75%
CC[C@H](C)[C@H](NC(=O)[C@H](Cc1ccccc1)NC(=O)[C@H](CCC(=O)O)NC(=O)[C@H](CCCCNC(=O)COCCOCCNC(=O)COCCOCCNC(=O)CC[C@H](NC(=O)CCCCCCCCCCCCCCCCC(=O)O)C(=O)O)NC(=O)[C@H](C)NC(=O)[C@H](C)NC(=O)[C@H](CCC(N)=O)NC(=O)CNC(=O)[C@H](CCC(=O)O)NC(=O)[C@H](CC(C)C)NC(=O)[C@H](Cc1ccc(O)cc1)NC(=O)[C@H](CO)NC(=O)[C@H](CO)NC(=O)[C@@H](NC(=O)[C@H](CC(=O)O)NC(=O)[C@H](CO)NC(=O)[C@@H](NC(=O)[C@H](Cc1ccccc1)NC(=O)[C@@H](NC(=O)CNC(=O)[C@H](CCC(=O)O)NC(=O)C(C)(C)NC(=O)[C@@H](N)Cc1cnc[nH]1)[C@@H](C)O)[C@@H](C)O)C(C)C)C(=O)N[C@@H](C)C(=O)N[C@@H](Cc1c[nH]c2ccccc12)C(=O)N[C@@H](CC(C)C)C(=O)N[C@H](C(=O)N[C@@H](CCCNC(=N)N)C(=O)NCC(=O)N[C@@H](CCCNC(=N)N)C(=O)NCC(=O)O)C(C)C |  | healthy human | subcutaneous, 0.25 to 1.5 mg weekly, 16 weeks | subjects with adverse events | 83.1%
C[C@@H](N)c1cc(Cl)ccc1Cn1c(=S)[nH]c(=O)c2[nH]ccc21 |  | human matched controls | oral, 2.5 mg single dose | subjects with adverse events | 20%

Excerpt of the above:
SMILES | test | test system | conditions | measurement | value
CC(=O)N(C)[C@H]1CCN(C(=O)c2cnc3c(c2)C[C@](C)(c2ccc(F)cc2)N3)C1 |  | healthy male human | oral, dose not given, all doses pooled | subjects with severe AEs | 4.2%
CC(C)(C(=O)N1CCOc2c(C#N)cncc2C1)C(F)F |  | human, both sexes | oral, 40 mg single dose | subjects with thrombophlebitis TEAE | 0%
